Measured values from different studies.
Each numbered part is a random draw from the data of one study; scales do not carry over between parts.
UniProt P17106, sequence (whole entry, looked up): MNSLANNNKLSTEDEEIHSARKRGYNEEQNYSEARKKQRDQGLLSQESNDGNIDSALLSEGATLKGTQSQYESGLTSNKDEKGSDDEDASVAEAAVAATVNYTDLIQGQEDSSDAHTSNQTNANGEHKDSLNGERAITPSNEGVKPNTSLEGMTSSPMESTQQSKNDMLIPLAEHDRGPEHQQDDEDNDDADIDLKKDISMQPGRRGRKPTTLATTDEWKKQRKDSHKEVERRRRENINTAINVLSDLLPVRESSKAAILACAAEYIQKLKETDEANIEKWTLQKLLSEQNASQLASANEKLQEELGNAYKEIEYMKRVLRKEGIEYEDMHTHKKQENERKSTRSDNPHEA

Block 1
Target: Sal-like protein 4, full length isoform A (SALL4, Homo sapiens, UniProt Q9UJQ4, residues 1-1053)
UniProt Q9UJQ4, sequence (whole entry, looked up): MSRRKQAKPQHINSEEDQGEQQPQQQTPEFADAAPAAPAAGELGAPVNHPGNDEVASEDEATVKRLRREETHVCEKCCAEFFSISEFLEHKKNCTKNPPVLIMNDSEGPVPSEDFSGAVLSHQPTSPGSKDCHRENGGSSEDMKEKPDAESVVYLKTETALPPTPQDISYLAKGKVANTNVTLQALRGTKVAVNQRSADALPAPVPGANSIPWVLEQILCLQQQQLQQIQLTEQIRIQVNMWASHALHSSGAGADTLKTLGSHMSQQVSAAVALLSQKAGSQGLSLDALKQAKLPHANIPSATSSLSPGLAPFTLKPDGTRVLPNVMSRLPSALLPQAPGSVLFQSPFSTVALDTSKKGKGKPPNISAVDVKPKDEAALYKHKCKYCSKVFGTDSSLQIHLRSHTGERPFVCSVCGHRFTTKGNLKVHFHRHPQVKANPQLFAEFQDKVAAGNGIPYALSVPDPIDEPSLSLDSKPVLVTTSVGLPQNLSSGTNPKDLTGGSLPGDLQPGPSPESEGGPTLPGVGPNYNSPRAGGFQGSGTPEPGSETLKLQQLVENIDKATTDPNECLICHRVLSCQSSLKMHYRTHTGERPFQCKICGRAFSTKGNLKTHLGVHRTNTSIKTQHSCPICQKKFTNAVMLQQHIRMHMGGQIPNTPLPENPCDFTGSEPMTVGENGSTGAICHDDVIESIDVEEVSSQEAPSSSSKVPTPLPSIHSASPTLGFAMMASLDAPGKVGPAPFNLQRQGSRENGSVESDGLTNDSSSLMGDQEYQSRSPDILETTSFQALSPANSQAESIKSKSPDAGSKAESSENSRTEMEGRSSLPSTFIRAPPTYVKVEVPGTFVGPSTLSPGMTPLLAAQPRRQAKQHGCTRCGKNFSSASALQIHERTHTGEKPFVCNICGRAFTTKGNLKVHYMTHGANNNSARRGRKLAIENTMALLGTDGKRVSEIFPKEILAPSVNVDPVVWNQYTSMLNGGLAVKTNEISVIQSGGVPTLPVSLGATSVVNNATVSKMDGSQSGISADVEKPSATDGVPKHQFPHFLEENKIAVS
Method: universal PBM
Molecule type: double-stranded DNA, one strand shown
Medium: in vitro
Tested at: 600 nM
Setting: 8-mer, flanks averaged, mean of replicates
Direction: higher = stronger binding
Sequence	E-score
CCAGAGGC	-0.255
CTGACTCC	-0.152
AGCTGCAT	-0.0397

Block 2
Target: Prothrombin, mature alpha-thrombin (F2, Homo sapiens, UniProt P00734)
Method: aptamer microarray, sandwich
Molecule type: DNA with 2'F-ANA
Medium: in vitro
Tested at: 200 nM
Setting: whole 15-mer aptamer, many near background
Together with: Cy3 exosite-II aptamer, 400 nM
Direction: higher = stronger binding
Sequence	mean fluorescence intensity [a.u.]
GGTTGGTGTGGTTGG (2'F-ANA at 3 4 5 8 9 11)	98.9
GGTTGGTGTGGTTGG (2'F-ANA at 8 9 15)	609
GGTTGGTGTGGTTGG (2'F-ANA at 4 6 7 9 10 11 13 14)	79.5

Mixed results
IRF5 S451D/S453D/S456D/S462D full length, phosphomimetic: Interferon regulatory factor 5, full length, phosphomimetic (IRF5, Homo sapiens, UniProt Q13568-2, residues 1-514, S451D/S453D/S456D/S462D)
Molecule	target	test	system	conditions	scale	quantity	result
GCCTAGCACTTAGAACCGAGACTGGATTAGTGCTAGGTCTTGATTCGCTTGACGCTGCTG	IRF5 S451D/S453D/S456D/S462D full length, phosphomimetic	protein-binding microarray	double-stranded DNA, one strand shown, in vitro	940 nM top, 60-bp whole probe, together with: salmon DNA 0.4 mg/ml	reference: random background probes, higher = stronger binding	fitted relative affinity	0.715 z-score
ACTCTTGGCCAAAGACCCGTGGTGAAGCCATGAATCGTCTTGATTCGCTTGACGCTGCTG	Centromere-binding protein 1, full length, His-tagged (CBF1, Saccharomyces cerevisiae, UniProt P17106, residues 1-351)	competition protein-binding microarray	double-stranded DNA, one strand shown, in vitro	2 µM, whole 60-bp probe, lowest competitor level, together with: Pho4 competitor, 0.05 µM	higher = stronger binding	fluorescence intensity	70 a.u.
GCCTAGCACGACGGACGGGGGACTGGGGACGTGCTAGTCTTGATTCGCTTGACGCTGCTG	IRF5 S451D/S453D/S456D/S462D full length, phosphomimetic	protein-binding microarray	double-stranded DNA, one strand shown, in vitro	940 nM top, 60-bp whole probe, together with: salmon DNA 0.4 mg/ml	reference: random background probes, higher = stronger binding	fitted relative affinity	0.752 z-score
PhoQ, residues 284 288 289 292 302 303 SCCLKL	PhoP, residues 12 14 15 18 19 AQALL (Escherichia coli, UniProt P23836)	Sort-seq, refers to: YFP reporter	E. coli	PhoQ-PhoP variant library, together with: 10 µM Mg2+	reference: high Mg2+ state, higher = stronger signaling	fold induction	7.49

Excerpt of the above (block 1):
Sequence	E-score
CTGACTCC	-0.152
AGCTGCAT	-0.0397
